Literature values that unrelated publications cite.
Protocols differ between the studies behind these lines. ± marks the error that the study gave.

For `CC(C)C[C@@H](NC(=O)[C@H](C)NC(=O)CNC(=O)[C@@H](NC=O)C(C)C)C(=O)N[C@@H](C)C(=O)N[C@@H](C(=O)N[C@H](C(=O)N[C@@H](C(=O)N[C@@H](Cc1c[nH]c2ccccc12)C(=O)N[C@H](CC(C)C)C(=O)N[C@@H](Cc1c[nH]c2ccccc12)C(=O)N[C@H](CC(C)C)C(=O)N[C@@H](Cc1c[nH]c2ccccc12)C(=O)N[C@H](CC(C)C)C(=O)N[C@@H](Cc1c[nH]c2ccccc12)C(=O)NCCO)[C@H](C)O)C(C)C)C(C)C`, the IC50 was over 1 µM (P388; cytotoxicity).
`CC1=C(Cn2c3cccc(=O)c-3nc3ccccc32)CCC(C)(C)C1` gave an IC50 of 0.1 µg/mL (L1210 mouse leukaemia; cytotoxicity).
The IC50 of `CCC1=C(O)c2c(oc(-c3ccc4ccccc4c3)cc2=O)C(CC)(CC)C1=O` is reported as 1.16 µM (KB-VIN (P-gp-overexpressing MDR); cell growth, SRB).
The IC50 of `COc1cc(/C=C/C(=O)NCCc2ccc(OC)c(OC)c2)ccc1O` is reported as over 100 µM (RAW264.7; cytotoxicity; 24 h).
For `CCCC[C@H](C)/C=C(C)/C=C/C(=O)O`, the IC50 was 1 µM (T47D; cytotoxicity).
For `CCC1=C(O)c2c(oc(-c3cccc4ccccc34)cc2=O)C(CC)(CC)C1=O`, the IC50 was 0.77 µM (KB-VIN (P-gp-overexpressing MDR); cell growth, SRB).
The IC50 of `O=C(/C=C/c1ccc(O)c(O)c1)NCCc1ccc(O)cc1` is reported as over 100 µM (RAW264.7; cytotoxicity; 24 h).
`CCC1=C(O)c2c(oc(-c3ccc4cc(OC)ccc4c3)cc2=O)C(CC)(CC)C1=O` has an IC50 of 9.57 µM (KB-VIN (P-gp-overexpressing MDR); cell growth, SRB).
With `CC(C)=CCn1c2ccc(Br)c(=O)c-2nc2ccccc21` the IC50 was 0.029 µM (HCT-116; cytotoxicity).
For `COc1cc(/C=C/C(=O)NCCc2ccc(O)c(O)c2)ccc1O`, the IC50 was over 100 µM (RAW264.7; cytotoxicity; 24 h).
`Fc1cc2nc3c4cccnc4c4ncccc4c3nc2cc1F.[Cl-].[Cl-].[Ru+2].c1ccncc1.c1ccncc1.c1ccncc1.c1ccncc1` has an IC50 of over 200 µM (L-O2; cytotoxicity; dark).
`O=C(CCc1ccc(O)c(O)c1)NCCc1ccc(O)cc1` gave an IC50 of over 100 µM (RAW264.7; cytotoxicity; 24 h).
`CCOC(=O)C1=C(NC2CCCCC2)Oc2c(c(C)nc3c(C#N)c(C)nn23)C1C(=O)OCC` (stereo not shown) has an IC50 of 19.7 ± 0.89 µM (MCF7; cytotoxicity).

Repeated from above:
The IC50 of `COc1cc(/C=C/C(=O)NCCc2ccc(OC)c(OC)c2)ccc1O` is reported as over 100 µM (RAW264.7; cytotoxicity; 24 h).
